# Published values of several laboratories.
# Parts stem from different laboratories: compare values within a part only.

# Study 1 — method: protein binding microarray; molecule type: double-stranded DNA, one strand shown; sample: in vitro; tested at: not given; baseline: not given; reading: higher = stronger binding
# Target: Histone acetyltransferase KAT6A, winged helix 2, GST fusion (KAT6A, Homo sapiens, UniProt Q92794, residues 85-181)
# Setting: 8-mer, flanks averaged, mean of 2 arrays, mostly near background
# Residues (chain): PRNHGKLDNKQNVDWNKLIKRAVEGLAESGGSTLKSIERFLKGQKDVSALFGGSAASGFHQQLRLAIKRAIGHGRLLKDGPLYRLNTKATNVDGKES
Sequence,E-score
CACTTGGG,0.0427
CTCGATAC,-0.0838
AATGTCGT,-0.0481
GGATGAAA,0.197
AGACAGGC,-0.0828
GAAGGACA,0.0855
CACCTCAA,0.0198
AGTCCGCA,0.164
AAGTCTTC,-0.155
CATACGTC,-0.206
AGCGAGAA,-0.0187
GAGCCCAC,0.00806
GCGAATTA,0.108
AGAGTAGG,-0.129
TCTGTGCA,0.0899
AACCCCGA,-0.123
AGGTGCGC,-0.00507

# Study 2 — method: universal PBM; molecule type: double-stranded DNA, one strand shown; sample: in vitro; tested at: 600 nM; reading: higher = stronger binding
# Target: Sal-like protein 4, full length isoform A (SALL4, Homo sapiens, UniProt Q9UJQ4, residues 1-1053)
# UniProt Q9UJQ4, sequence (whole entry, looked up): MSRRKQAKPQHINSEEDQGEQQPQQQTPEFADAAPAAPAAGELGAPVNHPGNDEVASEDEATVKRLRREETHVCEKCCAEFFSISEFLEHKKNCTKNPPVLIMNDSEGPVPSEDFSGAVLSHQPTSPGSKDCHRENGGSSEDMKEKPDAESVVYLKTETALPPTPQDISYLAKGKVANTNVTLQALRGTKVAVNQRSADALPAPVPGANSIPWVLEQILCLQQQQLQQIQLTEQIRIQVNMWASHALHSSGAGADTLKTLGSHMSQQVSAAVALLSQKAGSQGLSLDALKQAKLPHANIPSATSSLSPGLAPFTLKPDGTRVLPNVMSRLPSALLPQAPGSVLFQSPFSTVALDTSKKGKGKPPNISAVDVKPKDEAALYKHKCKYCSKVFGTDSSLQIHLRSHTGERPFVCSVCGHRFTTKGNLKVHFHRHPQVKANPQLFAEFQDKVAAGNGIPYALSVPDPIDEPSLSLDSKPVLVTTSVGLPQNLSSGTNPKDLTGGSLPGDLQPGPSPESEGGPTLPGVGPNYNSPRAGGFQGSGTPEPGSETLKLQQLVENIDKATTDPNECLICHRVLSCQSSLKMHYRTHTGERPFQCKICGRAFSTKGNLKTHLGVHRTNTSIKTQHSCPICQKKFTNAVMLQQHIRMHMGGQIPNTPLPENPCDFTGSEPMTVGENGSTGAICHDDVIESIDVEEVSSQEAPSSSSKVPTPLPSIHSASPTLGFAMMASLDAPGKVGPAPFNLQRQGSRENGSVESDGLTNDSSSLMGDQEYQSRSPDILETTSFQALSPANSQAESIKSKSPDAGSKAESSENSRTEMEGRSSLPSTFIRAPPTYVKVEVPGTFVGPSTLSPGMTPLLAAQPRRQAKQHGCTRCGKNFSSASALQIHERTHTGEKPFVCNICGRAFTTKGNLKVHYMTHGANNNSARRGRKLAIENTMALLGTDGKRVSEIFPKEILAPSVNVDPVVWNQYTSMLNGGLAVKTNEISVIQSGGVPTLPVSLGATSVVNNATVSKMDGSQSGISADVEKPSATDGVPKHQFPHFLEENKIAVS
# Setting: 8-mer, flanks averaged, mean of replicates
Sequence,E-score
CAGTCACC,-0.159
CGTCGTAC,-0.00473
CAAGGTTC,-0.11
ATTCAATG,0.201
GCCTCTCC,-0.266
AAGCGGCT,-0.257
CAGTCAAC,-0.136
CTTTTGTA,0.221
ATAAGACC,0.148
AACGGCTG,-0.167
CTCATGCC,-0.184
ATCCTAAG,-0.132
ACGCTCTA,-0.186
AAAGTGAA,0.233
AGTGAGGG,-0.152
ACGGACAG,-0.202
AGAACGTC,0.107
AAAGTTGG,0.0793
GGATATCC,0.017
CGGTTACA,0.052
AAAGGCCC,-0.18
AGCAAACT,0.091
GCGATCCA,-0.23
GTAATCAA,0.255
GTGTCCCA,-0.251

# Study 3 — method: competition protein-binding microarray; molecule type: double-stranded DNA, one strand shown; sample: in vitro; tested at: 2 µM; with: Cbf1 competitor, 0.05 µM; reading: higher = stronger binding; all sequences stand within: … GTCTTGATTCGCTTGACGCTGCTG
# Target: Phosphate system positive regulatory protein PHO4, full length, GST-tagged (PHO4, Saccharomyces cerevisiae, UniProt P07270, residues 1-312)
# Setting: whole 60-bp probe, lowest competitor level
# Construct (chain): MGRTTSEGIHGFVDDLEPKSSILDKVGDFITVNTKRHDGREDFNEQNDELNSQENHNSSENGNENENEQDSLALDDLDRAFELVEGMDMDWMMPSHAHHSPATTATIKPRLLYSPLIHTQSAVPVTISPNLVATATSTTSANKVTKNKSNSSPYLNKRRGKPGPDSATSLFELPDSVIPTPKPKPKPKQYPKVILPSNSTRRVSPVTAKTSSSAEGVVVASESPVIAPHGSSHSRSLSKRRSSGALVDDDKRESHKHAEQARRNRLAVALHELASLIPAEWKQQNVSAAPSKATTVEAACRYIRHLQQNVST
Sequence,fluorescence intensity [a.u.]
ATGAAACCTAAGTCCCACGTGTCGGTTAAATGGCCA,19800
TCTATGTAACTACGTCTTGTGATGACCGGTATAGCT,3600
TGTGGACAGGGTAGATTCGGAGCCGACGCTATAATT,2430
TGCGCAACAACTTGCGGAGTGGGTGTATGTCTAGAA,4450
CTAACGAAGGTTTGGAGAGTGGGTGACAAGCCAAGT,3860
TTGCTCTTCTATTTGCACGTGAAGCATGCTGAAATC,14700
CAGTATCATCGTCATTGGTAGTATTCACTAGGGGAC,3570
CTTTCCCGATCTTGAGTGGTGGGTGTAGCACATTTG,4630
CTAACGAAGGTTTGGTAAGTGGGTGACAAGCCAAGT,3820
CTGAAGTTGACCGGCCACGGGATTCGTCAAGTATGT,8150
CTGCCTAACAGGATGCACATGTTTGTTTATTGCTGA,12400
TGCAGAACGCAAAATCGCGTGCGGAAGGAACGAGGA,8460
TGCGCAACAACTTGAACAGTGGGTGTATGTCTAGAA,4150
AGGTTGATGAAGAAGGACGTGCTTTCCCAGTTGAGT,8350
AAAGCGGTAATTTTTCACGTGGGATCAAATATCTAT,13500
AAATTACTAAGTTGGTGCGTGGGTGACGCCGTATGA,8230
CGGGGTTAAGTTTGATGCGTGGGTGGCTTGCAGCAG,8550

# Study 4 — method: protein-binding microarray; molecule type: double-stranded DNA, one strand shown; sample: in vitro; tested at: 250 nM; setting: 60-bp whole probe; with: salmon DNA 0.4 mg/ml; baseline: random background probes; reading: higher = stronger binding; all sequences stand within: GCCTAGCAC … GTCTTGATTCGCTTGACGCTGCTG
# Target: Interferon regulatory factor 5, full length, phosphomimetic (IRF5, Homo sapiens, UniProt Q13568-2, residues 1-514, K96S/S451D/S453D/S456D/S462D)
Sequence,log fluorescence [z-score]
GACGATTTCAGTTTGGAGACGTGCTAG,1.35
GACGGACTGGGTATCGAGACGTGCTAG,0.121
TTAGGACTGGGTTATCGGTTAGTGCTA,1.99
TTAGGTTCCGGTCTCGGTTAGTGCTAG,1.94
TTCGGTATCGGGACTGGGTTAGTGCTA,2.79
GACGGTTTCGACACTGGGAACGTGCTA,4.98
TTAGGACTGAGGTTTCGGTTAGTGCTA,6.99
ATATATATTATATATTTATGTGTGCTA,1.18
TCAACTTTATGTAGGAAACTGTGCTAG,0.148
TTAGAACTGAGTCTCGATTTGTGCTAG,0.61
GACGGTCTCCTCCTGCTGACGTGCTAG,-0.425
TTAGGTCTCCTACTTCTTTAGTGCTAG,-0.0588
TCAGTTTTGTGTGTGTGACTGTGCTAG,0.563
GACGATATAAGTATCGAGACGTGCTAG,2.19
TTAGGCCTGGACTTTCGGTTAGTGCTA,9.18
TCATGTTTGAGTCTTCTACTGTGCTAG,0.383
TTAGGTATCGGGTTTCGGTGAGTGCTA,7.33

# Study 5 — method: RNA Bind-n-Seq; molecule type: RNA; sample: in vitro; tested at: 365 nM; baseline: no-protein control; reading: higher = stronger binding
# Target: RNA binding protein fox-1 homolog 2, RRM domain, GST-SBP tag (RBFOX2, Homo sapiens, UniProt O43251-10, residues 100-194)
# Setting: natural RNA segment, single round, ends assumed
# All sequences stand within: GGGAGUUCUACAGUCCGACGAUC … UGGAAUUCUCGGGUGCCAA
# Residues (chain): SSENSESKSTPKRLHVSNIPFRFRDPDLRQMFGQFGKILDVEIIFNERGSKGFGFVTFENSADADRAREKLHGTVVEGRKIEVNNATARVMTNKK
Sequence,RBNS enrichment (R)
ACCAGAUACCUGGCUUUCCAUGGUGUGAGCAUUCAGACUGAGAUUAGAACCGCAAUGCAGGCUUGGGGAAUUGGCUCAGUCAGAGAAGGCCUUGCUUUGCAAGGAUGGUA,2.99
UUCAUCAGAACCCUAAAAUGGUCGUUGAAGGCGCCUGGGCCGCAGCCCAGCAGUAGUUGGAGAGGCAGGCAGAGGGCAGUGGUUCUCCCAAAUAGGAGACCUGGGGCCUG,0.314
CUAUUGGGCUCUUAGACACAGACCUGAGCCAUGAACCCAAGCCACGUAUCUACACCAUAGCUGCCUCUCAGCUGGCUACAUAAGGAAACAUUAGGGAUUAACUGUCAGAA,0.245
UUUAAGUGUAUACUUUAGCAGGUGUGUACUAAUUACCAGUAACUUCAACACAAGCAAAGCAGGUUACAUGGUAAUGUUCAUUCAGUAUAUUUCUUGUUUGUGAAAUUGAA,0.526
UUUAUAACCCAUUCAUACUCUCUGGCUGUCCCCAACCUUCAUAGUCUCCUGCAUCCAAAUGUCCUCUUUGGCUCAAAAAGUAGGCCAGGCAUGGUGGUUCAUGCCUGUAA,0.67
CAGGCCAUAACAGGGUAGAAGAGAGACAUCGUGCAACCCAAUGAGUAGUGAAGGGACUGUGUUGCUUGUGAAGCGGUGUAGUAGCAUUUUUGCAGAUUCUUGGCUGGGUU,1.27
ACCCACGGGGUCACUUGAGGAAUCUGCCCCACUGCUUCUUGUGAGCAGAUCAGGACCCUUAGGAAAUGUGCAAAUGAGAUCCAACUCCAAUUCAACAAUCUGAGAGAGAA,1.44
GGUCCUGUGUUCAAUUCCCAGCAACCACAUGGUGGCUCACAACCAUCCGUAAUGAGAUCUGAUGCCCUCUUCUGGUGUGUCUGAAGAGAGCUACAGUGUACUCAUAUAAA,0.319
CUAGAGCCAAGUGAGUGCAUGUCUAGGGUUCCCAUGUUUACAGUAAGGACCGGCUCAGGCACUGACCCUCUGAGUCACGUGAAUGAGGACGAAGAAUUUGGAAUAGGUUU,7.98
UAUCAAGCCUCUGCCUUGGUUUCUGAGCUAUAUGAGGGUGGGGAAGGCACACUCUUUUUUCCUUUUUCCUUAGGUUCCCAAUAUUAUUUGGUGGAAACGUGGGCUUUCUC,0.467
UUUCUACUUCUCUACAGCAGCUGUCAGUGUUUUGUACUUGUAGACACCUAAUAAAUUGAUCAUUUGCAAAGAACACUGAUUGAAUUUGCUUCUCUUAUUUUUUAAGAGAC,0.344
GGGUAGGGGAUCUGCUUCCCACUGUGACUGGGCUAUGGGAUUCUGACUACCUUGCUUACAGAUUCAUGGUUUGAUAAAUUUGUUGUAUUCAAAAACUUGAAAUGCAGGAC,0.367

# Study 6 — method: protein-binding microarray; molecule type: double-stranded DNA, one strand shown; sample: in vitro; tested at: not given; reading: higher = stronger binding
# Target: TATA-box-binding protein 1 (TBP1, Arabidopsis thaliana, UniProt P28147, residues 1-200, full length assumed)
# Setting: k-mer, scored over probes, only values ≥0.25
# Residues (chain): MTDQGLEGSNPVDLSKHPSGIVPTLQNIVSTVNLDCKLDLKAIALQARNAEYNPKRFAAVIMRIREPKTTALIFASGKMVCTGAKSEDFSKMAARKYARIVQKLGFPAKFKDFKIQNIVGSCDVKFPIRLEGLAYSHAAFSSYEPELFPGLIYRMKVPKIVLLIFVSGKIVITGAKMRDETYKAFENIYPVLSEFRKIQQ
Sequence,E-score
ATATCAA,0.323
AATACAC,0.276
AATAATG,0.274
ATAAGCG,0.284
GTTAATA,0.343
ATAAACC,0.338
AAGATAA,0.32
CCTAATA,0.284
GATAATA,0.356
ATTATCC,0.291
TATGTAA,0.315
TATTAAA,0.443
AATATCG,0.278
